Results collected from several papers.
A part holds a random share of what one study measured.

Series 1
Target: RING finger protein unkempt homolog, zinc fingers 1-6, GST-SBP tag (UNK, Homo sapiens, UniProt Q9C0B0, residues 30-357)
Method: RNA Bind-n-Seq
Molecule type: RNA
Matrix: in vitro
Tested at: not given
Setting: RNA with constant flanks, ends assumed
Relative to: input RNA pool
Reading: higher = stronger binding
Shared flanks, not repeated: GGGAGUUCUACAGUCCGACGAUC … CAACAGAGGAUUGAGCAUCA
Target sequence (chain): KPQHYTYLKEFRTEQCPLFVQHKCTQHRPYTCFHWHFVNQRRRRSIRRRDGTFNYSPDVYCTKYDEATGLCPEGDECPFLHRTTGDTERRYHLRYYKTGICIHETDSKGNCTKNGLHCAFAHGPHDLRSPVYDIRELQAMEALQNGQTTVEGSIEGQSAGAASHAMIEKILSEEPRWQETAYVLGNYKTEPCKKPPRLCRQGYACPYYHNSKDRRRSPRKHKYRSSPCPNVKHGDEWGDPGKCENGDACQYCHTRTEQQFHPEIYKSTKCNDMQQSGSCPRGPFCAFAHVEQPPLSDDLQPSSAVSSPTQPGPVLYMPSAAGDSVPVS
| Oligonucleotide | bound/input enrichment [ratio] |
| --- | --- |
| AGGAUGGCACAACUUCUGGAUCUCUCUGUGGAUGAGUCAGAGGCUUUCCUCUCGAAUCCCGUCGUUAACAAGACCAUCUUUGCUAAAGUAGACAGGUUGGCUGGAGUCAUCAACUUCCAG | 0.105 |
| GUUCAGAAGAGGUUUGGCUUUCCAGAGGGCAGUGUAGAGCUUUAUGCUGAAAAGGUGGCCACCCGAGGUCUGUGUGCCAUUGCCCAGGCAGAGUCUCUGCGUUACAAACUCCUAGGAGGG | 0.185 |
| UUUAUCAGAACACUUCUGGCUGUUACAAGACCAUUUAUUAGCUCGAAAUUCAGCCAAAAAAUCCGAUACGUGUUUAAUUUGGCAGAACUAGCAGAACUUGUCCCCAUGGAAUACGUUGGC | 0.314 |
| AUUCCUUUUAUUGAAACAUCAGCAAAGACAAGACAGGGUGUUGAUGAUGCCUUCUAUACAUCCGUUCGAGAAAUUCGAAAACAUAAAGAAAAGAUGAGCAAAGAUGGUAAAAAGAAGAAA | 0.181 |
| GAAAUUUUGAAAUGGUAUCUCAACAAGAUAAAGUUUGAUAAAUCUGUUGAUCCAGAAAUCACCGCUCGAGGGACUGUUGGGUUCUCUGGAGCAGAGUUGGAGAAUCUUGUGAACCAAGCU | 0.183 |
| ACUGGUGUGGUCGUUGUUGGAAUACAGGGAGAGCCUGAGCGUGGACCCCGCUUUCCCAGAACCCGCCGUGAGGCUGUGCUCCGUGAAAAUGCACCACCAGGGACUCCAGUUAUCUCCCCA | 0.0878 |
| UAUUUUUAUAACUAUCCAGCAGUGUGUGAAUUUUUGCAAAACAAUAAUUUGUUAUCGAUUAUCCGAGCUCAUGAAGCUCAAGAUGCAGGCUAUAGAAUGUACAGAAAAAGUCAAACUACA | 0.386 |
| ACAUAGCUGACUCUCCACUCAAUUUUGUUGUUGUUGUUGUCGUCAUUUUUCACAAUACUUCCGCAAAUUUUUUAUCUUAUGGGGGACUCGGUUUCUUUUCACAUGUGAUUUCUGGGAGGC | 0.49 |

Series 2
Target: TAR DNA-binding protein 43, full length, His tag (TARDBP, Homo sapiens, UniProt Q13148, residues 1-414)
Method: RNA Bind-n-Seq
Molecule type: RNA
Matrix: in vitro
Tested at: 20 nM
Setting: 6-mer, flanks averaged, single round
Together with: 150 mM KCl
Relative to: input library
Reading: higher = stronger binding
| Oligonucleotide | 6-mer enrichment (R) |
| --- | --- |
| GCCUGA | 0.842 |
| UAUGAA | 0.86 |
| GCAGUU | 0.808 |
| GCUGCA | 0.878 |
| UGUAAG | 0.974 |

Series 3
Target: Histone acetyltransferase KAT6A, both winged helices, GST fusion (KAT6A, Homo sapiens, UniProt Q92794, residues 1-181)
Method: protein binding microarray
Molecule type: double-stranded DNA, one strand shown
Matrix: in vitro
Tested at: not given
Setting: 8-mer, flanks averaged, mean of 2 arrays, mostly near background
Relative to: not given
Reading: higher = stronger binding
Target sequence (chain): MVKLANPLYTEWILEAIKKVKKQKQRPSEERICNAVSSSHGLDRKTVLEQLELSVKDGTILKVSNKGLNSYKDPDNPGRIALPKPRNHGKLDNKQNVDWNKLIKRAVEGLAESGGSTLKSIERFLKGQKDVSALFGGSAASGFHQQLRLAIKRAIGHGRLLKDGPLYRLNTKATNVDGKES
| Oligonucleotide | E-score |
| --- | --- |
| AAGCTCAC | -0.0225 |
| AAGACACC | -0.0946 |
| AAGGAGCC | -0.0972 |
| AAGGCAAC | -0.0989 |
| ATTAGGTC | -0.103 |
| AATCGGGG | 0.0946 |
| CGATATGA | 0.0464 |
| ATCAACCA | 0.0253 |

Series 4
Target: Replicase polyprotein 1ab, main protease (rep, Severe acute respiratory syndrome coronavirus 2, UniProt P0DTD1)
Observed: enzyme activity
Mode: inhibitor
Tested at: 20 µM
Setting: hit confirmation, with DTT
| Compound | inhibition [%] |
| --- | --- |
| O=C(O)c1cc(O)c(O)c(O)c1 | 2.5 |
| CCCCCCCCCCCCCCCC[n+]1ccn(Cc2ccccc2)c1C | 36.3 |
| NC[C@H](O)c1ccc(O)c(O)c1 | 13.1 |

Series 5
Target: Replicase polyprotein 1ab, polymerase (rep, Severe acute respiratory syndrome coronavirus 2, UniProt P0DTD1)
Observed: enzyme activity
Mode: inhibitor
Tested at: 20 µM
| SMILES | inhibition |
| --- | --- |
| CO[C@H]1[C@H](O)[C@@H](O)[C@@H](O)[C@H](O)[C@@H]1O | -1.36% |
| CNC(=O)c1ccccc1Nc1cc(Nc2ccc(N3CCOCC3)cc2OC)ncc1C(F)(F)F | 0.36% |
| CC(C)n1c(/C=C/[C@@H](O)C[C@@H](O)CC(=O)O)c(-c2ccc(F)cc2)c2ccccc21 (racemic) | -0.26% |
| Cc1ncc(NC(=O)c2ccc(CN3CCN(C)CC3)c(C(F)(F)F)c2)cc1Nc1nccc(-c2cccnc2)n1 | -4.34% |
| CC/C=C(\C(=O)N[C@@H]1C(=O)N2C(C(=O)OCOC(=O)C(C)(C)C)=C(COC(N)=O)CS[C@H]12)c1csc(N)n1 | 4.51% |
| O=C(CCCN1CC=C(n2c(=O)[nH]c3ccccc32)CC1)c1ccc(F)cc1 | 28.8% |
| COc1ccc2cc(CCC(C)=O)ccc2c1 | 4.32% |
| NCCCC[C@H](NC(=O)[C@@H]1CCCN1C(=O)[C@@H]1CSSC[C@H](NC(=O)CNC(=O)CNC(=O)CN)C(=O)N[C@@H](Cc2ccc(O)cc2)C(=O)N[C@@H](Cc2ccccc2)C(=O)N[C@@H](CCC(N)=O)C(=O)N[C@@H](CC(N)=O)C(=O)N1)C(=O)NCC(N)=O | 1.65% |
| O=C(O)c1ccc(O)c2ncccc12 | 0.16% |
| O=C(O)CNC(=O)c1nc(Cl)c2ccccc2c1O | -3.89% |
| CCCCCCCCNC(=O)/C(C#N)=C/c1cn(CCCN(C)C)c2ccccc12 | 7.18% |
| O=C1NC(=O)C(=Cc2ccc(-c3ccc(F)cc3)o2)S1 (stereo in doubt) | -1.64% |
| COc1cc2ncc(-c3ccccc3)nc2cc1OC | -8.55% |
| c1cc(-c2cnn3cc(-c4ccc(OCCN5CCCCC5)cc4)cnc23)ccn1 | 9.69% |
| CCN(CC)CCOCCOC(=O)C1(c2ccccc2)CCCC1 | 19.5% |
| NC(CO)(CO)CO | 2.34% |
| CCOC(=O)N1c2ccc(C(F)(F)F)cc2[C@@H](N(Cc2cc(C(F)(F)F)cc(C(F)(F)F)c2)C(=O)OC)C[C@H]1CC | 3.96% |
| CCc1cccc(CC)c1NC(=O)N1Cc2[nH]nc(NC(=O)c3ccc(N4CCN(C)CC4)cc3)c2C1 | 7.49% |
| COc1ccccc1OC(=O)C(C)c1ccc(CC(C)C)cc1 (centres unmarked) | 0.04% |
| CC(C)c1cc(C(C)C)c(-c2csc(N(CCN(C)C)Cc3cccnc3)n2)c(C(C)C)c1 | 4.23% |
| CC(C)(C)C1CCc2c(sc(NC(=O)c3ccco3)c2C(=O)O)C1 (centres unmarked) | 31.2% |
| N#Cc1ccc(N2N=C3c4ccc(C(=O)O)cc4CC[C@@H]3[C@@H]2C2CCCC2)cc1Cl | 2.25% |
| CCCCCCCCCCCCCCCCNc1ccc(C(=O)O)cc1 | 17.8% |
| CCn1c(=O)c2c(nc(/C=C/c3ccc(OC)c(OC)c3)n2C)n(CC)c1=O | 2.08% |
| O=C(N/N=C/c1ccc([N+](=O)[O-])o1)c1ccc(O)cc1 | 2.03% |

Series 6
Cell line: HEK-293T
Organism: VSV pseudotyped with SARS-CoV-2 spike
Tested at: 10 µM
Time: 16 h
| SMILES | pseudovirus infection [%] |
| --- | --- |
| CN(C)CCOC(c1ccccc1)c1ccccc1 | 115 |
| COC(=O)[C@H](c1ccccc1Cl)N1CCc2sccc2C1 | 103 |
| CN1CCCCC1CCN1c2ccccc2Sc2ccc([S+](C)[O-])cc21 (centres unmarked) | 57.4 |
| CN(C)CCC=C1c2ccccc2COc2ccccc21 | 49.8 |
